Experimental data from different studies.
Lines come from different studies, so protocols differ. ± marks the error that the study gave.
T1: itself; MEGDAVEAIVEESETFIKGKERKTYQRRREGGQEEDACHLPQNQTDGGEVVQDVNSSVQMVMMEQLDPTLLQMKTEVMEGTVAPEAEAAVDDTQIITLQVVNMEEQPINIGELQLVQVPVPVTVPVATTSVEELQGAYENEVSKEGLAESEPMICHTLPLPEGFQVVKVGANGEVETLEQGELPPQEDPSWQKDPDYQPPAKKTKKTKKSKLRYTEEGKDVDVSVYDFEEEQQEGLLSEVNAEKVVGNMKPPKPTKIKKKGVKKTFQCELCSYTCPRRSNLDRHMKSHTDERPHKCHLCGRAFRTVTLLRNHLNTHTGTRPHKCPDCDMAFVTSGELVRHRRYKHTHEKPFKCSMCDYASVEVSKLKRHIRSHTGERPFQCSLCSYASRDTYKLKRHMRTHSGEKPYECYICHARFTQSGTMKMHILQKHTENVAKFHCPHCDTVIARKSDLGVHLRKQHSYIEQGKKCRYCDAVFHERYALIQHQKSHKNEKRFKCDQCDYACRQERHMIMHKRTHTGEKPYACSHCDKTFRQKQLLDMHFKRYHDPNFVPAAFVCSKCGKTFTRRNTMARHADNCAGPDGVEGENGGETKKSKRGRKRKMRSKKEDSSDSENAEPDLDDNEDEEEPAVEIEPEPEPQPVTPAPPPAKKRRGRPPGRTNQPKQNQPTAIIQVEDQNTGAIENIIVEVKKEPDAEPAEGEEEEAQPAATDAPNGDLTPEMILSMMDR
T2: itself; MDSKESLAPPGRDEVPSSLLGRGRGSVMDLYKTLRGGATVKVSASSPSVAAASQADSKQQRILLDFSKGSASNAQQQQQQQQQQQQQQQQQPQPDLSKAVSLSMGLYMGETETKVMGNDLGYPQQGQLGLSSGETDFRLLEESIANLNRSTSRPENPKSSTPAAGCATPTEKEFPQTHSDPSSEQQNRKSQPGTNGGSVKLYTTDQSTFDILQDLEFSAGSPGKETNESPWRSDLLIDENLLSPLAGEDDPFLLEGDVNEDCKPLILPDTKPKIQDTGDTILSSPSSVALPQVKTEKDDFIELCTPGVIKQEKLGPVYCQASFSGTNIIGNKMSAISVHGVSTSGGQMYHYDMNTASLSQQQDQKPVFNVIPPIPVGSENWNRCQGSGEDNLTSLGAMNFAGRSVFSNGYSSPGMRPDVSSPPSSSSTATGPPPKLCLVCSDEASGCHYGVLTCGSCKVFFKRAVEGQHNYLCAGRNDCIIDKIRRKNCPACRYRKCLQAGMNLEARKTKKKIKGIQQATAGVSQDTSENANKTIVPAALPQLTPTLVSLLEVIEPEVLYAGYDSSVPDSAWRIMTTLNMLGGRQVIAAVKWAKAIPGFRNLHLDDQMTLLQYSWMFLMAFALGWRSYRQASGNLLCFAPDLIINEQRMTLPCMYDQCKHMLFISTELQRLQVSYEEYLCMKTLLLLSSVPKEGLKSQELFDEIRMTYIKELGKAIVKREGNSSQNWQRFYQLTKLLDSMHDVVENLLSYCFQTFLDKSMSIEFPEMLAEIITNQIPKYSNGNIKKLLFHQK
Chain of UniProt Q8MIP0 (whole entry, looked up): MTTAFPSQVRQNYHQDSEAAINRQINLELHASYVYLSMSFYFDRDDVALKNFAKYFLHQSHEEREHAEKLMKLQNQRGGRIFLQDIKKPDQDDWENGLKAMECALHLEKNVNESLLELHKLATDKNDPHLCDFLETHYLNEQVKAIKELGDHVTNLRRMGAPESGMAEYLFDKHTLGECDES
Chain of UniProt O95999 (whole entry, looked up): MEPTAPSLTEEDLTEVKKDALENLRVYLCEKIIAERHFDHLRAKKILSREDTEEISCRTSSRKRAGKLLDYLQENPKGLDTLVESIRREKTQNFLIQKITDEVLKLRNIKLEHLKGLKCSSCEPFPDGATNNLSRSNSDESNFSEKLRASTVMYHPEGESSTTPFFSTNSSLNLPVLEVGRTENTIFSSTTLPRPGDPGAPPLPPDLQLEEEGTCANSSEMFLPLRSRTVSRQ
Chain of UniProt Q5S007 (whole entry, looked up): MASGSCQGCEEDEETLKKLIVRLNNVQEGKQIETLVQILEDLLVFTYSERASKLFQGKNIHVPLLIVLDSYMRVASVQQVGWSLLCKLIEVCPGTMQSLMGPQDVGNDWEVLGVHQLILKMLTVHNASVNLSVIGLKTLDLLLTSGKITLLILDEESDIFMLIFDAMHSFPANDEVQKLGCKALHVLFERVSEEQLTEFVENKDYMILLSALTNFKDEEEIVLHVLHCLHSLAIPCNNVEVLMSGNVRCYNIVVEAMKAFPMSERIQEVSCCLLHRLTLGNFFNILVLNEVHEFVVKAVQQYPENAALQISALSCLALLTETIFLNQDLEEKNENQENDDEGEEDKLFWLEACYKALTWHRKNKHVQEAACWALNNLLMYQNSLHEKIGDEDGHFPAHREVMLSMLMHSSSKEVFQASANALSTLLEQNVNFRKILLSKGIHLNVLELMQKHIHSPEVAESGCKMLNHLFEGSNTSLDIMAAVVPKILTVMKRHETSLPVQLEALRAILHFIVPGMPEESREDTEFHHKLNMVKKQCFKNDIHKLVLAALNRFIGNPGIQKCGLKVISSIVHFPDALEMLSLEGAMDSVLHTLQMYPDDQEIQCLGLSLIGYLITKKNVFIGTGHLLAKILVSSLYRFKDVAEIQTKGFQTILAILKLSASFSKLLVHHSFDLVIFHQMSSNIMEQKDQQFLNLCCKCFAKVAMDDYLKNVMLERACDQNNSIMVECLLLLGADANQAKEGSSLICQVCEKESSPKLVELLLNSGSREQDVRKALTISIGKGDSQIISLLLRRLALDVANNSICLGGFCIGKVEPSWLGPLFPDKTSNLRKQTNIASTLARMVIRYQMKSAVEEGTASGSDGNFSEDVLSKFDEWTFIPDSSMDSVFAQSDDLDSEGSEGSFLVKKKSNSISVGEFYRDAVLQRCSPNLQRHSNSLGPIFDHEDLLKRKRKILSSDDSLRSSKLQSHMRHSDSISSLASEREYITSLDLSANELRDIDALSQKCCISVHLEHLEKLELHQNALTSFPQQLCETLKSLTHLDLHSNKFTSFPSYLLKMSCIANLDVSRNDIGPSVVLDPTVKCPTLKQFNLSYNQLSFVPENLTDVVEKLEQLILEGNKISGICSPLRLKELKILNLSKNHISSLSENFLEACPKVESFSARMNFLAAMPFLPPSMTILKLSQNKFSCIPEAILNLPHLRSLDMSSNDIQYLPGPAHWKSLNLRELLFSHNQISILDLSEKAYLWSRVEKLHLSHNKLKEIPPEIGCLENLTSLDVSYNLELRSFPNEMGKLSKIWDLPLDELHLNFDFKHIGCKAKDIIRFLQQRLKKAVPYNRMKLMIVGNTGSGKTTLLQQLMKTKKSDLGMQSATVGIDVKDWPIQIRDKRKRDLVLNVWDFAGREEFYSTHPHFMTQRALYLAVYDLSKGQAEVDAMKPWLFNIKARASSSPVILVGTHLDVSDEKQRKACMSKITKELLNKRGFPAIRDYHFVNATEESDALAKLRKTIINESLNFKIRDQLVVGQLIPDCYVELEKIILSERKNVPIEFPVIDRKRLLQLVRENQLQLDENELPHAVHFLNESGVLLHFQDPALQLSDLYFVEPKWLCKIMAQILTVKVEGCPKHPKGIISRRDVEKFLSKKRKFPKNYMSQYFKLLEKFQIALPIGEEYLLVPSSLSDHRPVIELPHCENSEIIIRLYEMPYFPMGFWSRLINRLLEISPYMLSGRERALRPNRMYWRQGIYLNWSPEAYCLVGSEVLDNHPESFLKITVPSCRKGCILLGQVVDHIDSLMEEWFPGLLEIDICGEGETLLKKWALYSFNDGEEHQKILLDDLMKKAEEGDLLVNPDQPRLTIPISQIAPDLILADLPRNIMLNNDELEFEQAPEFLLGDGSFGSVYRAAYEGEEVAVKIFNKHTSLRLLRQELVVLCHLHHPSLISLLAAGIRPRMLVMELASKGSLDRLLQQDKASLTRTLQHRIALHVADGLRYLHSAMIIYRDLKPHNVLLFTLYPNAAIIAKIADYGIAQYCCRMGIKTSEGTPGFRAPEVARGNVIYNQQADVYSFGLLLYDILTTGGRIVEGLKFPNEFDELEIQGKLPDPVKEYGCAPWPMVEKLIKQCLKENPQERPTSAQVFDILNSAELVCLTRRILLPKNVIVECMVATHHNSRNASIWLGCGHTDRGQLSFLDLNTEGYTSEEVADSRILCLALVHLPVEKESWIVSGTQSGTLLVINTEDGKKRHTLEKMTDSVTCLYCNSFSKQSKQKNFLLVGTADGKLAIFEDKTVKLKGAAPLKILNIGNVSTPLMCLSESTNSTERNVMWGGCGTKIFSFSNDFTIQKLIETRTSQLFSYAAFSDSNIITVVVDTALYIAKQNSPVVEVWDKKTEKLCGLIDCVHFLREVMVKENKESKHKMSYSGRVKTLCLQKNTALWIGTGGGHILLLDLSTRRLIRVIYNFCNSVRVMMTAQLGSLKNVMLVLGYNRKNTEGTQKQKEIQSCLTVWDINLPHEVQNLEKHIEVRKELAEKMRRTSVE
Chain of UniProt P03023 (whole entry, looked up): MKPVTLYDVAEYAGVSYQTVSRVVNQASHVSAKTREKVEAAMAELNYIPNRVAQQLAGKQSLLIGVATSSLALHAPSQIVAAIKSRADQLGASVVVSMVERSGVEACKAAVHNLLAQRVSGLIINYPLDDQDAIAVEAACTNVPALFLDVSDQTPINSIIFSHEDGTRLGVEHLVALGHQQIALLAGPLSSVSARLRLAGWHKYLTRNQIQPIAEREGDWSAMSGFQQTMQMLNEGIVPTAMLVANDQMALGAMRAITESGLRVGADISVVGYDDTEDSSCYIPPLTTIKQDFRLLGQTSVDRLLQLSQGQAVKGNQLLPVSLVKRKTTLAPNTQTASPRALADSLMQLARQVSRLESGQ

ferritin apo, 15% H 85% L (Equus caballus, UniProt Q8MIP0)
percent dimer (itself; AUC): 3%

STEP61 (Rattus norvegicus)
dimer band (itself; non-reducing SDS-PAGE and immunoblot; hippocampus, N-acetyl cysteine; baseline: untreated aged control, higher = more dimer): 58.9%

proNGF residues -121 to 118 three furin sites to alanine (Mus musculus)
subunits per oligomer (itself; SEC-MALS): 2

LRRK2 (Homo sapiens, UniProt Q5S007)
autophosphorylation (itself; in vitro autophosphorylation; dimer fraction; baseline: LMW monomer fraction, higher = more phosphorylation): 8.4 fold

PYCARD (Homo sapiens, UniProt Q9ULZ3-2)
backward rate constant (itself; real-time NMR; 495 µM): 0.005 h

gerBC fragment (Bacillus subtilis)
Kd (itself; analytical ultracentrifugation; monomer-dimer self-association): 2.2 mM

TPDYLMQLMNDKKLMSSLPNFSGIFNHLERLLDEEISRARKDMYNDTLNGSTEK (Qki 14-67 C35S/V52A (Mus musculus, UniProt Q9QYS9))
melting temperature (itself; CD thermal melting; 50 µM): 60 °C

amyloid beta fragment
relative band intensity (itself; SDS-PAGE immunoblot; tetramers, lipidated apoE4; baseline: sample without apoE, higher = more tetramer remaining): 235%

HLA-DRA/HLA-DRB1 heterodimer, on cells (Homo sapiens)
fraction of 1-particle spots (itself; single-particle fluorescence imaging): 63 ± 10%

IgA J chain-deficient (Mus musculus)
monomer to dimer ratio (itself; native gel or EMSA; serum; densitometry): 10 times

Sh C96S/C301S/C308S/C505T (Drosophila melanogaster)
recovery time from inactivation (itself; paired-pulse electrophysiology; cysteine-less Shaker): 170 ms

BCL10, Alexa488 label (Homo sapiens, UniProt O95999)
critical concentration of polymerization (itself; confocal fluorescence microscopy; wild type, full length): 0.5 µmol/L

EPHA2 N483L/R485E (Homo sapiens)
cross-correlation fraction (itself; PIE-FCCS; COS7; no ligand, live cells; higher = more dimerization): 0.15

HEXIM1 L287R/L294R (Homo sapiens)
anomaly coefficient α (itself; FCS; U2OS; in nucleoplasm): > 0.8

PYCARD (Homo sapiens, UniProt Q9ULZ3)
backward rate constant (itself; real-time NMR; 501 µM): 0.05 h

ALDH12 fragment (Zea mays) (sequence not shown)
Ka (itself; AUC; sedimentation equilibrium, dimer-tetramer model): 910000 M⁻¹

CDH1 fragment (Gallus gallus)
separation force (itself; dual pipette assay; 0.5-60 min): 200 nN

CTCF (Homo sapiens, UniProt P49711)
co-precipitation decrease (T1, itself; pull-down; nuclear extract; together with: RNase A; baseline: untreated, higher = greater loss): 50%

Nr3c1 (Mus musculus, UniProt P06537)
molecular brightness (T2, itself; number and brightness microscopy; 3134-GR KO; at array, in cells, together with: Cort 100 nM; baseline: monomeric control, higher = more oligomerised): 3.15 fold

ClpX fragment T66C/P388C, Cys66-Cys388 disulfide (Escherichia coli)
Vmax decrease (itself; GFP-ssrA degradation; reduced with dithiothreitol, together with: ClpP; baseline: oxidized enzyme, higher = larger decrease): 4 fold

CENPA (Homo sapiens, UniProt P49450)
tagged to untagged ratio (itself; co-IP): 2 ratio tagged:untagged

CRYGS N15D/Q121E/N144D/N54D/Q93E (Homo sapiens)
subunits per oligomer (itself; SEC-MALS): 2

A1cf fragment (Rattus norvegicus)
percent dimer (itself; AUC): 5%

protein (UniProt O87963)
loop formation rate constant (itself; tethered particle motion; two-site DNA, dimers to tetramer): 0.15 s⁻¹

COL15A1 trimerization domain (Homo sapiens)
trimer midpoint concentration (itself; GuHCl equilibrium transitions; extrapolated to water, calculated): 119 pM

Rag1 fragment (Mus musculus)
relative dimer remaining (itself; SEC; baseline: dimer fraction before dialysis, higher = more dimer): 55%

lacI full length, tetramer (Escherichia coli, UniProt P03023)
repression (itself; lacZ reporter; baseline: between strains, higher = stronger repression): < 10 fold

Some of these lines once more:
ALDH12 fragment (Zea mays) (sequence not shown)
Ka (itself; AUC; sedimentation equilibrium, dimer-tetramer model): 910000 M⁻¹

EPHA2 N483L/R485E (Homo sapiens)
cross-correlation fraction (itself; PIE-FCCS; COS7; no ligand, live cells; higher = more dimerization): 0.15

ferritin apo, 15% H 85% L (Equus caballus, UniProt Q8MIP0)
percent dimer (itself; AUC): 3%
